Experimental data of several laboratories.
Compare with care: the assays were run in different laboratories. “And” joins repeats or separate records; there may be more than shown.

For `Nc1ncc(-c2cc(-c3cnn(CC(F)(F)F)c3)ncc2F)nc1C(=O)NC1CNCC(F)C1` (centres unmarked), the remaining binding was 100% (PIP5K2B; KINOMEscan; 1 µM; reference: DMSO control).
`COc1ccccc1-c1ccncc1C(=O)Nc1nnc(OCc2ccc(Cl)cc2)s1` has a colony count of 16.5 and 17 and 17.5 (MDA-MB-436; 0.1875 µM).
`c1ccc(-c2n[nH]cc2-c2ccnc3ccccc23)nc1`: “log2 fold change” 0.05 (BUB1 (Candida albicans); kinase binding, MIB/MS competition; Candida albicans lysate; 1 µM; reference: DMSO).
`COC1CN([C@H]2CC[C@H]([C@@]3(C)Oc4c(Cl)cc(C(=O)NCc5c(SC)cc(C)[nH]c5=O)c(C)c4O3)CC2)C1` — result for “log2 fold change”: 1.17 (RNA-seq, item: SMARCD3; human, whole blood; dose not given, 24 h; reference: pretreatment baseline).
For `Cc1ncsc1-c1ccc(C(C)NC(=O)C2CC(O)CN2C(=O)C(NC(=O)CCCCCCCCCCN2CCCC(Nc3ncc(Cl)c(Nc4ccccc4S(=O)(=O)C(C)C)n3)C2)C(C)(C)C)cc1` (centres unmarked), “log2 fold change” read -2.15 (22Rv1; RNA-seq, item: MOCS3 mRNA; concentration not given; reference: DMSO).
Under “log2 fold change”, `CN1CCCNC(=O)c2cccc(c2)C(=O)NCCCN(C)CCCNc2cccc3c2C(=O)c2cccc(c2C3=O)NCCC1` is recorded as -0.98 (SAS; RNA-Seq, item: SPTLC2 mRNA; 1 µM, 6 h; reference: untreated cells).
For `CNS(=O)(=O)Nc1nccc(Cc2c(C)c3ccc(Oc4ncccc4F)cc3oc2=O)c1F`, the IC50 was 1.03 nM (NU-DUL-1; cell viability; 7 days).
`C=CC(=O)Nc1cccc(Cn2ncc3cnc(Nc4cnn(CCOC)c4)nc32)c1` — result for “percent of control”: 100% (PIM1 human; binding, KINOMEscan; 100 nM; lower = stronger binding).

For quick reference, copied from above:
`COC1CN([C@H]2CC[C@H]([C@@]3(C)Oc4c(Cl)cc(C(=O)NCc5c(SC)cc(C)[nH]c5=O)c(C)c4O3)CC2)C1` — result for “log2 fold change”: 1.17 (RNA-seq, item: SMARCD3; human, whole blood; dose not given, 24 h; reference: pretreatment baseline).
